Measured values pooled from the literature.
Values joined by “and” are separate records of one study, mostly repeats; a detail may differ.
LTK: Leukocyte tyrosine kinase receptor (LTK, Homo sapiens, UniProt P29376)
TDP1: Tyrosyl-DNA phosphodiesterase 1 (TDP1, Homo sapiens, UniProt Q9NUW8)
UniProt Q9NUW8, sequence (whole entry, looked up): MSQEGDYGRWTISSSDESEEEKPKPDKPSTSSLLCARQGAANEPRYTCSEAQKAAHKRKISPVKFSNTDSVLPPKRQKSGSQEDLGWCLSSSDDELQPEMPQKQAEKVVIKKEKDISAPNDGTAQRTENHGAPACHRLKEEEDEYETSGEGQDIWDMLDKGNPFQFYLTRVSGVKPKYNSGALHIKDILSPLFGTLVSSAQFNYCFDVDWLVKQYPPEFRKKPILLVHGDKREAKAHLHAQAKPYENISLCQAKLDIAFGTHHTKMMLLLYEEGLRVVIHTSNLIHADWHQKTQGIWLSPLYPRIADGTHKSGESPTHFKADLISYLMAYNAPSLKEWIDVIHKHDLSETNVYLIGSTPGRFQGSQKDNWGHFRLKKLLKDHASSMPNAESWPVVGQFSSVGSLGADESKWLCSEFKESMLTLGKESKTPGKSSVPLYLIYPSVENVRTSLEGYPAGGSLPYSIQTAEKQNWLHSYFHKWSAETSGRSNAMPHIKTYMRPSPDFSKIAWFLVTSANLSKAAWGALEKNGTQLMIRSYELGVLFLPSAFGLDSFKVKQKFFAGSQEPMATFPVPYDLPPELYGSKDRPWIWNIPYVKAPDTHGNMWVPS

Compound | target | assay | conditions | how to read | measurement | result
COc1cc(Nc2nccc(-c3cnn4nc(OC)ccc34)n2)cc(C(F)(F)F)c1 | LTK | binding, competition with immobilised ligand | 1 µM | – | remaining binding | 83%
COc1c(Cl)cccc1Nc1c(-c2ccncc2C#C[C@@]2(C)CCCN2C(=O)/C=C/CN(C)C)[nH]c2c1C(=O)NCC2 | LTK | cell-free assay, competition with immobilised ligand | 3 µM | – | remaining binding | 100%
Cc1cccc(O[C@H]2CCC[C@@H](C(C)CNCc3ccncc3)C2)c1 (relative stereo) | LTK | cell-free assay | 1 µM | – | inhibition | -1%
CN1CCN(Cc2ccc(-c3ccc(CO[C@H]4CCC[C@@H]4NC(=O)c4cc(-c5cnn(C)c5)cnc4N)cc3)cc2)CC1 | LTK | enzyme activity, inhibitor | 0.1 µM | – | inhibition | -1%
CCn1cc(C(=O)O)c(=O)c2c(N)c(F)c(NC3CCCCC3)cc21 | LTK | kinase activity | 0.1 µM, added: ATP at Km | – | inhibition | 13.2%
CNC1C[S+]2CC[S+]3CC[S+](C1)[Ru-4]321([N]=C=S)[n]2c3ccc(OC)cc3c3c4c(c5cc(F)c[n+]1c5c32)C(=O)NC4=O (stereo not drawn) | LTK | KinomeScan | 0.1 µM | baseline: untreated | remaining binding | 100%
CN(C)c1ccnc(-n2cccc2C=NOCc2ccc(-c3nc4cc(-c5ccccc5)ccn4c3Nc3ccc(C(=O)O)cc3)cc2)c1C#N (mixture of isomers) | TDP1 | enzyme activity, inhibitor | 100 µM, unpurified compound | – | inhibition | 57.4%
CN1CC[C@@H](COc2cnc(C#N)cc2-c2ccn3nc(NC(=O)C4CC4)cc3c2)C1 | LTK | enzyme activity, inhibitor | 1 µM | – | inhibition | 4%
COCC12C(=O)NC3C4(C(OC)CC1O)C1CC5(O)C(OC)C(O)C(OC(C)=O)(C1C5OC(=O)c1ccccc1)C3(O)C(OC)C24 (stereo not drawn) | LTK | kinase activity, inhibitor, ProQinase kinase profiling | 25 µM | baseline: control | remaining activity | 91%
C=CC(=O)N1Cc2nc(-c3cc(-c4cc(Cl)cnc4Cl)c(F)cc3F)n(-c3ccncn3)c2C1 | LTK | cell-free assay | 1 µM | – | inhibition | 6.1%
NC(=O)[C@@H](O)C[C@H]1CCc2sc3ncnc(O[C@H]4CC[C@H](N5CCOCC5)CC4)c3c21 | LTK | enzyme activity, inhibitor | 10 µM | – | inhibition | 19%
C=CC(=O)Nc1cccc(-c2cnc3[nH]cc(C(=O)NC(C)(C)C)c3n2)c1 | LTK | kinase activity | 0.1 µM | – | inhibition | 3% and 4%
C=CC(=O)N1CCc2ccc(-n3c(=O)ccc4cnc5ccc(-c6cnn(C)c6)cc5c43)cc21 | LTK | KINOMEscan | 1 µM | baseline: DMSO control | remaining binding | 100%
CNC(=O)C[C@H](Cc1ccc(C#N)cc1)NC(=O)c1cc(-c2ccc(CN[C@H](C)c3ccc(C)cc3)o2)ccc1Cl | LTK | enzyme activity, inhibitor | 1 µM | – | activity vs control | 89%
COc1cc([N+](=O)[O-])ccc1CC=NOCc1ccc2nc(-c3ccccc3)c(Nc3ccc(C(=O)O)cc3)n2c1 (mixture of isomers) | TDP1 | enzyme activity, inhibitor | 100 µM, unpurified compound | – | inhibition | -2.6%

For quick reference, copied from above:
Compound | target | assay | conditions | how to read | measurement | result
CN1CC[C@@H](COc2cnc(C#N)cc2-c2ccn3nc(NC(=O)C4CC4)cc3c2)C1 | LTK | enzyme activity, inhibitor | 1 µM | – | inhibition | 4%
